Measurements pooled from the literature.
Each line is one published result; not all experiments were run side by side. ± gives the spread as reported.

Compound | cell line | assay | system | conditions | IC50 [nM]
CC[C@H](C)[C@@H]1NC(=O)[C@H](Cc2ccc(-c3ccccc3)cc2)NC(=O)[C@H](CC(C)C)NC(=O)[C@@H]2[C@@H](c3ccccc3)CCN2C(=O)[C@H](NC(=O)[C@@H](CCCNC(=N)N)NC(=O)[C@@H](CCCNC(=N)N)NC(=O)[C@H](CCCCN=[N+]=[N-])NC(C)=O)CSCSC[C@@H](C(=O)N[C@H](CCCNC(=N)N)C(=O)N[C@H](CCCNC(=N)N)C(N)=O)NC(=O)[C@H](C(C)C)NC(=O)[C@@H]2CCCN2C(=O)[C@H](CC(=O)O)NC(=O)[C@H](Cc2ccc(O)cc2)NC(=O)[C@](C)(CO)NC1=O | A-375 (BRAF V600E) | AlphaScreen, measured: pERK | – | 18 h | > 50000
C=C(F)C(=O)N1CCN(c2nc(OC[C@@H]3CCCN3C)nc3c2CCN(c2cccc4cccc(Cl)c24)C3)C[C@@H]1CC#N | EBC-1 | cell viability, 3D CellTiter-Glo | – | – | > 1000
CC(C)CNC(=S)N/N=C/c1cccc2cc3ccccc3nc12 | PATU | cell proliferation, MTT | – | 48 h | > 50000
Cc1c(C(=O)O)ccc2c3n(nc12)[C@@H]1[C@H](C3)N(CC2CC2)[C@@]2(C(=O)Nc3cc(Cl)ccc32)[C@H]1c1cccc(Cl)c1F | NUGC-4 | cell proliferation, alamarBlue | – | – | 0.52
N#CCCC1=CC2C=CC=CC1C2C1CCCCC1=O (stereo not drawn) | normal fibroblasts | cytotoxicity | – | – | 629 ± 54
CC[C@]1(O)C[C@H]2CN(CCc3c([nH]c4ccccc34)[C@@](C(=O)OC)(c3cc4c(cc3OC)N(C=O)[C@H]3[C@@](O)(C(=O)OC)[C@H](OC(C)=O)[C@]5(CC)C=CCN6CC[C@]43[C@@H]65)C2)C1 | N6/ADR, multidrug resistant | MTT | – | 48 h | 9
CC(C)C[C@H](NC(=O)[C@H](Cc1ccccc1)NC(=O)c1cnccn1)B(O)O | MP38 uveal melanoma BAP1-mutant | cell viability, CellTiter-Glo | – | 72 h | 14.9
Cc1cn(C2CCN(Cc3cncc(Oc4cccc(Cl)c4)c3)CC2)c(=O)[nH]c1=O | MRC-5 cells | cytotoxicity | – | 3 days | 39900
CC(C)(C)c1cc(NC(=O)Nc2ccc(-c3cn4c(n3)sc3cc(OCCN5CCOCC5)ccc34)cc2)no1 | primary AML mononuclear cells, FLT3-ITD positive | cell viability, MTS | – | ex vivo | 875
CCS(=O)(=O)Nc1ccc(Oc2ccc(F)cc2F)c(-c2cn(C)c(=O)c3[nH]ccc23)c1 | MP38 uveal melanoma BAP1-mutant | cell viability, CellTiter-Glo | – | 72 h | 188
CC(=O)Nc1ccc(O)cc1 | THLE-2, 3D culture | MTT | – | 96 h | 157500 ± 523
CS(=O)(=O)CCNCc1ccc(-c2ccc3ncnc(Nc4ccc(OCc5cccc(F)c5)c(Cl)c4)c3c2)o1 | Ba/F3 expressing HER2 S310F | cell growth, inhibitor, CellTiter-Glo | – | – | 24.9
C/C=C1\NC(=O)[C@H]2CSSCC/C=C/[C@H](CC(=O)N[C@H](C(C)C)C(=O)N2)OC(=O)[C@H](C(C)C)NC1=O | MP38 uveal melanoma BAP1-mutant | cell viability, CellTiter-Glo | – | 72 h | 0.892
CCOc1cc2ncc(C#N)c(Nc3ccc(OCc4ccccn4)c(Cl)c3)c2cc1NC(=O)/C=C/CN(C)C | Ba/F3 expressing HER2 V659E | cell growth, inhibitor, CellTiter-Glo | – | – | 5.4
CC(=O)O[C@H]1C(=O)[C@@]2(C)[C@H]([C@H](OC(=O)c3ccccc3)[C@]3(O)C[C@H](OC(=O)[C@H](O)[C@@H](NC(=O)c4ccccc4)c4ccccc4)C(C)=C1C3(C)C)[C@]1(OC(C)=O)CO[C@@H]1C[C@@H]2O | KB-C2 | cell viability | – | – | 3910 ± 264
CCCCN1C[C@H](O)[C@@H](O)[C@@H](O)[C@H]1CO | sample BA patient fibroblasts | Gb3 level lowering, LC-MS/MS, measured: Gb3 d18:1/16:0 | – | 216 h | 14900
CCNCCCn1c2c(c3cc(OC)c(OC)cc3c1=O)C(=O)c1cc3c(nc1-2)OCO3 | CHLA-32 Ewing sarcoma cells | cytotoxicity, MTS | – | 72 h | 33
COc1cccc2c1C(=O)c1c(O)c3c(c(O)c1C2=O)C[C@@](O)(C(=O)CO)C[C@@H]3O[C@H]1C[C@H](N)[C@H](O)[C@H](C)O1 | K562 (compound-resistant) | cell growth, inhibitor, CellTiter-Glo | – | 96 h | 466
Cn1cc(CNCC2CCN(c3ncc(C(=O)NO)cn3)CC2)c2ccccc21 | MP38 uveal melanoma BAP1-mutant | cell viability, CellTiter-Glo | – | – | 6.75
Nc1cccc2c1C(=O)N(C1CCC(=O)NC1=O)C2=O (stereo not drawn) | MM1.S, compound-resistant | cell viability, XTT | – | – | ~1600
C[C@H](Nc1ccc2c(c1)OCCn1cc(N3C(=O)OC[C@H]3C(F)F)nc1-2)C(N)=O | TCC-SUP | cell growth, CellTiter-Glo | – | 120 h | 172
O=C1CCCCC1C1C2C=CC=CC1C(C1CC1)=C2 (stereo not drawn) | normal fibroblasts | cytotoxicity | – | – | 241 ± 22
CC(=O)O[C@@]12CO[C@@H]1C[C@H](O)[C@@]1(C)C(=O)[C@H](O)C3=C(C)[C@@H](OC(=O)[C@H](O)[C@@H](NC(=O)OC(C)(C)C)c4ccccc4)C[C@@](O)([C@@H](OC(=O)c4ccccc4)[C@H]21)C3(C)C | VCaP-AI, compound-sensitive | cell growth | – | – | 0.5
COc1ccc(N(C)c2nc(C)nc3ccccc23)cc1OCCCC(=O)NO | MP38 uveal melanoma BAP1-mutant | cell viability, CellTiter-Glo | – | – | 17400
Cc1cc(Nc2ncnc3ccc(NC4=NC(C)(C)CO4)cc23)ccc1Oc1ccn2ncnc2c1 | Ba/F3 expressing HER2 S310F | cell growth, inhibitor, CellTiter-Glo | – | – | 6.7
CCCCCC/C=C1\CC2C=CC=CC1C2C1CCCCC1=O (stereo not drawn) | normal fibroblasts | cytotoxicity | – | – | 127 ± 11

Compound | cell line | assay | system | conditions | IC50 [nM]
CCCNC(=S)N/N=C/c1cccc2cc3ccccc3nc12 | PATU | cell proliferation, MTT | – | 48 h | > 50000
Cc1c(C)c2c(c(C)c1O)CCC(C)(COc1ccc(CC3SC(=O)NC3=O)cc1)O2 (stereo not drawn) | THLE-2, 3D culture | MTT | – | 96 h | 79790 ± 254
CC[C@H](C)[C@@H]1NC(=O)[C@H](Cc2ccc(-c3ccccc3)cc2)NC(=O)[C@H](CC(C)C)NC(=O)[C@@H]2[C@@H](c3ccccc3)CCN2C(=O)[C@H](NC(=O)[C@H](CCCNC(=N)N)NC(=O)[C@H](CCCNC(=N)N)NC(C)=O)CSCSC[C@@H](C(=O)N[C@@H](CCCNC(=N)N)C(=O)N[C@@H](CCCNC(=N)N)C(N)=O)NC(=O)[C@H](C(C)C)NC(=O)[C@@H]2CCCN2C(=O)[C@H](CC(=O)O)NC(=O)[C@H](Cc2ccc(O)cc2)NC(=O)[C@H](CO)NC1=O | A-375 (BRAF V600E) | AlphaScreen, measured: pERK | – | 18 h | > 50000
COc1cc(Nc2nccc(-c3cnn4nc(OC)ccc34)n2)cc(C(F)(F)F)c1 | Hep3B2.1-7 | cell growth, CellTiter-Glo | liver | – | 2400
O=C(Nc1cccc2cccnc12)c1cnccn1 | HFF-1 | MTT | – | – | > 30000
C=CC(=O)NC1CCN(c2ncc3ncnc(Nc4ccc(Oc5ccc6c(c5)ncn6C)c(C)c4)c3n2)CC1 | Ba/F3 expressing HER2 V659E | cell growth, inhibitor, CellTiter-Glo | – | – | 7
Cc1noc(C)c1-c1cc(C(O)(c2ccccn2)c2ccccn2)c2nc(C3CC3)[nH]c2c1 | MP38 uveal melanoma BAP1-mutant | cell viability, CellTiter-Glo | – | 72 h | 140
Cc1cnc(-c2ccc(-c3ccc(NC(=O)Nc4c(F)cc(F)cc4F)cc3F)c3c2C(=O)NC3)[nH]1 | primary AML mononuclear cells, FLT3-ITD positive | cell viability, MTS | – | ex vivo | 401
O=C1CCCCC1C1C2C=CC=CC1/C(=C/Cc1ccccc1)C2 (stereo not drawn) | normal fibroblasts | cytotoxicity | – | – | 267 ± 21
C=CCO[C@H]1CCN2C(=O)[C@H](NC(=O)[C@H](CCCNC(=N)N)NC(=O)[C@H](CCCNC(=N)N)NC(C)=O)CSCSC[C@@H](C(=O)N[C@@H](CCCNC(=N)N)C(=O)N[C@@H](CCCNC(=N)N)C(N)=O)NC(=O)[C@H](C(C)C)NC(=O)[C@@H]3CCCN3C(=O)[C@H](CC(=O)O)NC(=O)[C@H](Cc3ccc(O)cc3)NC(=O)[C@H](CO)NC(=O)[C@H]([C@@H](C)CC)NC(=O)[C@H](Cc3ccc(-c4ccccc4)cc3)NC(=O)[C@H](CC(C)C)NC(=O)[C@H]12 | A-375 (BRAF V600E) | AlphaScreen, measured: pERK | – | 18 h | > 50000
CC1(COc2ccc3c(c2)ncn3-c2ccc3cccc(N4CCC(N)CC4)c3n2)COC1 | primary AML mononuclear cells, FLT3-ITD positive | cell viability, MTS | – | ex vivo | 5280
Cc1nc(Nc2ncc(C(=O)Nc3c(C)cccc3Cl)s2)cc(N2CCN(CCO)CC2)n1 | NCI-H1975 (EGFR L858R/T790M) | cell viability, MTT | – | 72 h | 100000
COC(=O)CCC1=CC2C=CC=CC1C2C1CCCCC1=O (stereo not drawn) | normal fibroblasts | cytotoxicity | – | – | 562 ± 42
COc1c(Cl)cccc1Nc1c(-c2ccncc2OC[C@@H]2COCCO2)[nH]c2c1C(=O)NCC2 | Ba/F3 expressing HER2 V659E | cell growth, inhibitor, CellTiter-Glo | – | – | 13.4
CC[C@H](C)[C@@H]1NC(=O)[C@H](Cc2ccc(-c3ccccc3)cc2)NC(=O)[C@H](CC(C)C)NC(=O)[C@@H]2[C@@H](c3ccccc3)CCN2C(=O)[C@H](NC(=O)[C@@H](CCCNC(=N)N)NC(=O)[C@@H](CCCNC(=N)N)NC(C)=O)CSCSC[C@@H](C(=O)N[C@H](CCCNC(=N)N)C(=O)N[C@H](CCCNC(=N)N)C(N)=O)NC(=O)[C@H](C(C)C)NC(=O)[C@@H]2CCCN2C(=O)[C@H](CC(=O)O)NC(=O)[C@H](Cc2ccc(O)cc2)NC(=O)[C@](C)(CO)NC1=O | A-375 (BRAF V600E) | AlphaScreen, measured: pERK | – | 18 h | > 50000
OCCCN1CC[C@@H]2C[C@H]1c1cc(-c3ccc(C(F)(F)F)cc3)ccc12 | mouse DRG neurons | p-eIF2α level | – | 16 h | 30
CC(=O)OCCC1=CC2C=CC=CC1C2C1CCCCC1=O (stereo not drawn) | normal fibroblasts | cytotoxicity | – | – | 517 ± 48
COc1ccc(NC(=S)N/N=C/c2cccc3cc4ccccc4nc23)cc1 | PATU | cell proliferation, MTT | – | 48 h | > 50000
CCN(CCO)CCCC(C)Nc1ccnc2cc(Cl)ccc12 (stereo not drawn) | human PBMC | qRT-PCR, measured: CXCL10 mRNA | – | with: ssRNA | 1900 ± 700
O=C(CCCCCONC(=O)c1nc(-c2cccnc2)cs1)NO | neonatal foreskin fibroblasts | cytotoxicity, sulforhodamine B | – | 72 h | 40100
O=C1CCCCC1C1C2C=CC=CC1/C(=C/c1ccccc1)C2 (stereo not drawn) | normal fibroblasts | cytotoxicity | – | – | 412 ± 38
COc1cc2c3c(n(CCCN4CCOCC4)c(=O)c2cc1OC)-c1nc2c(cc1C3=O)OCO2 | CHLA-32 Ewing sarcoma cells | cytotoxicity, MTS | – | 72 h | 708
COc1nnc2ccc(N3CCC(c4ccc(OCCN5CCN(C)C(=O)[C@H]5C)cc4)CC3)nn12 | MP38 uveal melanoma BAP1-mutant | cell viability, CellTiter-Glo | – | 72 h | 88.7
Fc1ccc(NC(=S)N/N=C/c2cccc3cc4ccccc4nc23)cc1 | PATU | cell proliferation, MTT | – | 48 h | > 50000
C=CC(=O)Nc1cc(Nc2nccc(-c3cn(C)c4ccccc34)n2)c(OC)cc1N(C)CCN(C)C | Ba/F3 EGFR E709K/G719A | cell proliferation | – | 72 h | 166 ± 16.2

Excerpt of the above:
Compound | cell line | assay | system | conditions | IC50 [nM]
CC(C)CNC(=S)N/N=C/c1cccc2cc3ccccc3nc12 | PATU | cell proliferation, MTT | – | 48 h | > 50000
Cc1c(C(=O)O)ccc2c3n(nc12)[C@@H]1[C@H](C3)N(CC2CC2)[C@@]2(C(=O)Nc3cc(Cl)ccc32)[C@H]1c1cccc(Cl)c1F | NUGC-4 | cell proliferation, alamarBlue | – | – | 0.52
N#CCCC1=CC2C=CC=CC1C2C1CCCCC1=O (stereo not drawn) | normal fibroblasts | cytotoxicity | – | – | 629 ± 54
CC[C@]1(O)C[C@H]2CN(CCc3c([nH]c4ccccc34)[C@@](C(=O)OC)(c3cc4c(cc3OC)N(C=O)[C@H]3[C@@](O)(C(=O)OC)[C@H](OC(C)=O)[C@]5(CC)C=CCN6CC[C@]43[C@@H]65)C2)C1 | N6/ADR, multidrug resistant | MTT | – | 48 h | 9
CC(C)C[C@H](NC(=O)[C@H](Cc1ccccc1)NC(=O)c1cnccn1)B(O)O | MP38 uveal melanoma BAP1-mutant | cell viability, CellTiter-Glo | – | 72 h | 14.9
Cc1cn(C2CCN(Cc3cncc(Oc4cccc(Cl)c4)c3)CC2)c(=O)[nH]c1=O | MRC-5 cells | cytotoxicity | – | 3 days | 39900
CC(C)(C)c1cc(NC(=O)Nc2ccc(-c3cn4c(n3)sc3cc(OCCN5CCOCC5)ccc34)cc2)no1 | primary AML mononuclear cells, FLT3-ITD positive | cell viability, MTS | – | ex vivo | 875
CCS(=O)(=O)Nc1ccc(Oc2ccc(F)cc2F)c(-c2cn(C)c(=O)c3[nH]ccc23)c1 | MP38 uveal melanoma BAP1-mutant | cell viability, CellTiter-Glo | – | 72 h | 188
